Measured values pooled from the literature.
Each numbered part is a random draw from the data of one study; scales do not carry over between parts.
Sequence of UniProt Q6P3R8 (whole entry, looked up): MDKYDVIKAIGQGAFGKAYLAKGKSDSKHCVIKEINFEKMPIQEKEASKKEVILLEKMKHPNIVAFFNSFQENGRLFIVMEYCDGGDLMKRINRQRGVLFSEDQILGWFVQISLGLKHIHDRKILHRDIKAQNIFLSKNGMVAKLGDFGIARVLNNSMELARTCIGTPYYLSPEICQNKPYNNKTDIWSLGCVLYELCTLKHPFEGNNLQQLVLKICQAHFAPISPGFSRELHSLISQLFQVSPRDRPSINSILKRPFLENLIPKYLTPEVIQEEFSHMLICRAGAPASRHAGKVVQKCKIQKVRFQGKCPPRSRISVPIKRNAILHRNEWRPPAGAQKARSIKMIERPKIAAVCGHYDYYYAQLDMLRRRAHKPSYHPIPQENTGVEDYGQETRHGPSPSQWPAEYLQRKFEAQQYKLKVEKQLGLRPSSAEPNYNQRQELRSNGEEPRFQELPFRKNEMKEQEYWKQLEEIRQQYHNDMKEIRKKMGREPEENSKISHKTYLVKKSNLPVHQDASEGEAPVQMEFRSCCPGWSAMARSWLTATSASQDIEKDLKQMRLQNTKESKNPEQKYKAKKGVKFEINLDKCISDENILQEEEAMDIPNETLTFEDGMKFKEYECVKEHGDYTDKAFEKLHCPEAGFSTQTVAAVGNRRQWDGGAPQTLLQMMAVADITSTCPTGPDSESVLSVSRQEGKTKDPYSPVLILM
Sequence of UniProt P36896 (whole entry, looked up): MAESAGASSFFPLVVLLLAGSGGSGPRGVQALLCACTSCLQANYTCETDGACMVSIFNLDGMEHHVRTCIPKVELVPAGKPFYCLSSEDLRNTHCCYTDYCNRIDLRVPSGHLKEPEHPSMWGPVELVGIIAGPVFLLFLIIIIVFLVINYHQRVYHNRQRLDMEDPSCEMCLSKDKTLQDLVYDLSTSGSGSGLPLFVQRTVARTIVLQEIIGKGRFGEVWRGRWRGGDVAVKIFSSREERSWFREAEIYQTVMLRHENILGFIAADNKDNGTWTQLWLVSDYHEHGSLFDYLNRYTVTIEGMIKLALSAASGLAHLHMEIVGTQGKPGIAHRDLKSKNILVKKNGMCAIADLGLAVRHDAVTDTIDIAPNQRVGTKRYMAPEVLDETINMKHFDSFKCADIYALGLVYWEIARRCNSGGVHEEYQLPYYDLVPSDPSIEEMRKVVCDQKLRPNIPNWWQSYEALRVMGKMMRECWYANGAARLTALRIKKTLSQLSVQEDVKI
Sequence of UniProt P48730 (whole entry, looked up): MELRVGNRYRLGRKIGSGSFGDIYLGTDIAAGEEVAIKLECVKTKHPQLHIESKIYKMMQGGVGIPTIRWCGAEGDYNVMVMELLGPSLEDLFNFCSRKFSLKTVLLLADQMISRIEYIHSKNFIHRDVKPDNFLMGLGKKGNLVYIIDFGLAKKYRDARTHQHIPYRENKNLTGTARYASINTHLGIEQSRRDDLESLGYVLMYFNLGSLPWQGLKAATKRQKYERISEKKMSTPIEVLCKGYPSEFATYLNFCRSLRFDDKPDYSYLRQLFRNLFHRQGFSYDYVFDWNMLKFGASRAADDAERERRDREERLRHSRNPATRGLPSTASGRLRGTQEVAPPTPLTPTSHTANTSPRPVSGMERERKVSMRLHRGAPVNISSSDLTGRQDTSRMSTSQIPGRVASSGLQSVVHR
Sequence of UniProt P31751 (whole entry, looked up): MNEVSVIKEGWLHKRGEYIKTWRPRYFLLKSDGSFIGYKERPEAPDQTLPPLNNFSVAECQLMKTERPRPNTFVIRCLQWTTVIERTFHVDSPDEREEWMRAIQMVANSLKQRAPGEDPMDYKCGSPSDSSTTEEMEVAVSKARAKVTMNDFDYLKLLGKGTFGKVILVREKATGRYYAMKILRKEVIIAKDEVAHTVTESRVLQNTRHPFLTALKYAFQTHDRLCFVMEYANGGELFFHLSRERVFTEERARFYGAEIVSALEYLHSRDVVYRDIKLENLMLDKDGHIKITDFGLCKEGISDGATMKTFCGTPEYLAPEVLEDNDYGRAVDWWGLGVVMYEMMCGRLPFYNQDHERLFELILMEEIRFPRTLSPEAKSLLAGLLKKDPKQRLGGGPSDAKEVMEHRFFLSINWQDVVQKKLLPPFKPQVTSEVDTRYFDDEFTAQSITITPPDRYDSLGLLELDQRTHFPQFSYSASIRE

Series 1
Structure (SMILES): CN([C@@H]1CCc2c(CC(=O)O)c3ccccc3n2C1)S(=O)(=O)c1ccc(F)cc1
Effect on: cell-free assay
Technique: competition with immobilised ligand
Tested at: 1 µM
| target | remaining binding [%] |
| --- | --- |
| CSNK1D (Homo sapiens, UniProt P48730) | 100 |
| MET (Homo sapiens, UniProt P08581, Y1235D) | 100 |
| AKT2 (Homo sapiens, UniProt P31751) | 95 |
| ACVR1B (Homo sapiens, UniProt P36896) | 96 |
| NEK5 (Homo sapiens, UniProt Q6P3R8) | 100 |

Series 2
Species: mouse
Medium: microsomes or S9
Tested at: 2 µM
Time: 0.5 h
| SMILES | remaining compound [%] |
| --- | --- |
| O=C(COc1ccc2c3ccccc3n(C(=O)c3cccnc3)c2c1)N1CCCCC1 | 0.101 |
| CCOc1cc(C(=O)OCc2cc(=O)n3oc(C)cc3n2)cc(OCC)c1OCC | 0.188 |
| CN1C(=O)C(c2c(-c3ccc(Br)cc3)[nH]c3[nH]c(=O)[nH]c(=O)c23)c2ccccc21 (stereo not shown) | 34.7 |
| COC(=O)c1ccc2c(c1)OC(CC(=O)Nc1ccc(N)cc1)C(=O)N2 (stereo not shown) | 71.2 |
| CCOC(=O)C1=C(n2cc(-c3ccccc3)nn2)Cc2ccccc2O1 | 79.5 |
| CCOC(=O)N1CCN(c2ncc3c(n2)CC(c2cc(OC)c(OC)c(OC)c2)CC3=O)CC1 (stereo not shown) | 35.6 |

Series 3
Effect on: AlphaScreen signal
Technique: AlphaScreen counter screen
Medium: His6 peptide without bromodomain
Tested at: 50 µM
Notes: assay interference check
| SMILES | inhibition [%] |
| --- | --- |
| COC(=O)C(C)Sc1ccc2nnc(-c3cccc(F)c3)n2n1 (stereo not shown) | 9.9 |
| Cc1cccc(-c2nc(C(C)(C)C)[nH]c2-c2ccc3c(c2)OCO3)n1 | 33.9 |
| O=C(O)c1cc(N=Nc2ccc(S(=O)(=O)Nc3ccccn3)cc2)ccc1O | 11.9 |
| CN1CCN(Cc2c(-c3ccc(F)cc3)[nH]c3ncccc23)CC1 | -2.1 |
| Cc1cc2c(F)c(Oc3ncnn4cc(OC[C@@H](C)O)c(C)c34)ccc2[nH]1 | 26.8 |

Series 4
Target: Serine/threonine-protein kinase PAK 4 (PAK4, Homo sapiens, UniProt O96013)
Sequence of UniProt O96013 (whole entry, looked up): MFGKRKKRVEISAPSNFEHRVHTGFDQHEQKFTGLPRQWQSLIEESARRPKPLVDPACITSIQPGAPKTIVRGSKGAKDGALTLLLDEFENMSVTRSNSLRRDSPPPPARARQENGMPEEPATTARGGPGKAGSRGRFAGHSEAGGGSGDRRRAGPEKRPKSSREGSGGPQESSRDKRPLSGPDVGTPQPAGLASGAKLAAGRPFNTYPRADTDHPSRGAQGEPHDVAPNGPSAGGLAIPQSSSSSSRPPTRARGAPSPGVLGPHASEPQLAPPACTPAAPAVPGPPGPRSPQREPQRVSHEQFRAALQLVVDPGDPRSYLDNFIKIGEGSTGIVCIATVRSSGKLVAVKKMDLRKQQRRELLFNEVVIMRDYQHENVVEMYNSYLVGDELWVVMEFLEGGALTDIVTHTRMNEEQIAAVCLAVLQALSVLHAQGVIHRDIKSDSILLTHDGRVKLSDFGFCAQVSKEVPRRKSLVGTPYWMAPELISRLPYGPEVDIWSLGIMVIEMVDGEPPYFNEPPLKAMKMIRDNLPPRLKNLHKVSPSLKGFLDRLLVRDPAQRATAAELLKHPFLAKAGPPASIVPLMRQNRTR
Effect on: enzyme activity
Mode: inhibitor
Tested at: 0.5 µM
Reference: control
| Compound | remaining activity |
| --- | --- |
| OCC(O)CCON=C1C(c2c(O)[nH]c3ccccc23)=Nc2ccccc21 (stereo not shown) | 84.5% |
| COc1ccc(OC)c2c(=S)c3ccccc3[nH]c12 | 102% |
| CO[C@H]1C[C@@H]2CC[C@@H](C)[C@@](O)(O2)C(=O)C(=O)N2CCCC[C@H]2C(=O)O[C@H]([C@H](C)C[C@@H]2CC[C@@H](O)[C@H](OC)C2)CC(=O)[C@H](C)/C=C(\C)[C@@H](O)[C@@H](OC)C(=O)[C@H](C)C[C@H](C)/C=C/C=C/C=C/1C | 97.1% |
| Cc1cccc(-c2[nH]c(C(C)(C)C)nc2-c2ccc3c(c2)OCO3)n1 | 77.5% |
| COc1cc2ncnc(Nc3ccc(Oc4ccccc4)cc3)c2cc1OC | 98.3% |
| COc1cc2nccc(Oc3ccc(NC(=S)NC(=O)c4ccccc4C)cc3)c2cc1OC | 100% |
| Nc1[nH]nc2nc3ccccc3nc12 | 104% |
| Cn1c2ccccc2c2c3c(c4c5ccccc5n(CCC#N)c4c21)CNC3=O | 44% |
| COc1ccc(CNC(=O)Nc2ncc([N+](=O)[O-])s2)cc1 | 115% |
| Cc1ccc(NC(=O)c2ccc(CN3CCN(C)CC3)cc2)cc1Nc1nc(-c2cccnc2)cs1 | 103% |
| COc1ccc(C(=O)Nc2sc3c(c2C(N)=O)CCCC3)cc1OC | 95.9% |
| N#CC(C#N)=C(N)/C(C#N)=C/c1ccc(O)cc1 | 85.6% |
| O=C(Nc1cccc(Nc2cc(Nc3cccc(C(F)(F)F)c3)ncn2)c1)C1CC1 | 103% |
| CN(C)c1ccc(C=C2C(=O)Nc3ccccc32)cc1 | 101% |
| CCOC(=O)c1c(C)[nH]c(/C=C2\C(=O)Nc3ccccc32)c1C | 71.8% |

A few entries again (series 1):
| target | remaining binding [%] |
| --- | --- |
| CSNK1D (Homo sapiens, UniProt P48730) | 100 |
| MET (Homo sapiens, UniProt P08581, Y1235D) | 100 |
| AKT2 (Homo sapiens, UniProt P31751) | 95 |
| ACVR1B (Homo sapiens, UniProt P36896) | 96 |
| NEK5 (Homo sapiens, UniProt Q6P3R8) | 100 |
